{"data": "Results pooled from the literature", "note": "Each line is one published result; not all experiments were run side by side. ± gives the spread as reported."}
{"SMILES": "Nc1ncnc2c1ncn2[C@@H]1O[C@H](COP(=O)(O)CP(=O)(O)OP(=O)(O)O)[C@@H](O)[C@H]1O", "target": "purinergic P2X receptor", "test": "radioligand binding", "endpoint": "IC50", "value": "29 nM"}
{"SMILES": "[Hg+2]", "target": "PP2C", "test": "enzyme activity", "setting": "concentration not given", "endpoint": "activity class", "value": "inactive"}
{"SMILES": "CC(C)CC(=O)OC[C@H]1O[C@@](C#N)(c2ccc3c(N)ncnn23)[C@H](O)[C@@H]1O", "target": "GABA transporter rat", "test": "radioligand binding", "setting": "20 µM", "endpoint": "inhibition", "value": "6%"}
{"SMILES": "Cc1cc(Nc2cc(N3CCN(C)CC3)nc(Sc3ccc(NC(=O)C4CC4)cc3)n2)n[nH]1", "target": "NLRP3 inflammasome", "setting": "10 µM", "endpoint": "inhibition", "value": "26.9%"}
{"SMILES": "COc1cc(Nc2ncc(F)c(Nc3ccc4c(n3)NC(=O)C(C)(C)O4)n2)cc(OC)c1OC", "target": "KATP potassium channel", "endpoint": "IC50", "value": "> 10000 nM"}
{"SMILES": "c1ccc(C(NCCNC(c2ccccc2)c2ccccc2)c2ccccc2)cc1", "target": "phorbol ester site, mouse", "test": "binding", "setting": "10 µM, Eurofins selectivity panel", "endpoint": "inhibition", "value": "-13%"}
{"SMILES": "CSc1cccc(CC(=O)N[C@H]2CCOC2=O)c1", "target": "ExpR1 (Pectobacterium carotovorum)", "test": "cellulase activity, antagonist", "system": "Pectobacterium carotovorum, single-ExpR1 strain", "setting": "5 µM, 4 h, added: OHHL 5 µM", "endpoint": "inhibition", "value": "79%"}
{"SMILES": "O[C@@H]1[C@@H]2OP(O)(=S)OC[C@H]2O[C@H]1n1cnc2cc(Cl)c(Cl)cc21 (single isomer, unassigned)", "target": "anti-cAMP antibody", "test": "binding, cAMP EIA, acetylated", "endpoint": "EC50", "value": "> 10000 nM"}
{"SMILES": "CCCCCC(=O)N[C@H]1CCOC1=O", "target": "ExpR1 (Pectobacterium carotovorum)", "test": "cellulase activity, antagonist", "system": "Pectobacterium carotovorum, single-ExpR1 strain", "setting": "5 µM, 4 h, added: OHHL 5 µM", "endpoint": "inhibition", "value": "67%"}
{"SMILES": "[Ba+2]", "target": "PP2C", "test": "enzyme activity", "setting": "concentration not given", "endpoint": "activity class", "value": "inactive"}
{"SMILES": "N#Cc1c(N)nc(SCC(N)=O)c(C#N)c1-c1ccc(OCC2CC2)cc1", "target": "ERK1/2 rat", "test": "decrease of PMA-increased activity", "system": "H9c2", "setting": "added: PMA pretreatment", "endpoint": "EC50", "value": "26.8 ± 3.7 nM"}
{"SMILES": "CCCCCC(=O)CC(=O)N[C@H]1CCOC1=O", "target": "ExpR1 (Pectobacterium carotovorum)", "test": "cellulase activity, agonist", "system": "Pectobacterium carotovorum, single-ExpR1 strain", "setting": "200 µM, 4 h", "how to read": "relative to: OHHL", "endpoint": "activation", "value": "29%"}
{"SMILES": "CCCCCCCCCCCCCC(=O)O[C@@H]1[C@@H](C)[C@@]2(O)[C@@H](C=C(CO)C[C@]3(O)C(=O)C(C)=C[C@@H]23)[C@@H]2C(C)(C)[C@]12OC(C)=O", "target": "phorbol ester receptor mouse", "test": "binding, radioligand binding", "endpoint": "IC50", "value": "1.08 nM"}
{"SMILES": "O=C(Cc1ccc(I)cc1)N[C@H]1CCOC1=O", "target": "ExpR1 (Pectobacterium carotovorum)", "test": "cellulase activity, antagonist", "system": "Pectobacterium carotovorum, single-ExpR1 strain", "setting": "5 µM, 4 h, added: OHHL 5 µM", "endpoint": "inhibition", "value": "73%"}
{"SMILES": "CCCN(CCC)c1c([N+](=O)[O-])cc(C(F)(F)F)cc1[N+](=O)[O-]", "target": "anti-BL mouse monoclonal antibody", "test": "binding, indirect competitive ELISA", "setting": "pH 7.4, 1% methanol", "endpoint": "IC50", "value": "> 1 µg/mL"}
{"SMILES": "O=C(Cc1ccc2ccccc2c1)N[C@H]1CCOC1=O", "target": "ExpR1 (Pectobacterium carotovorum)", "test": "cellulase activity, antagonist", "system": "Pectobacterium carotovorum, single-ExpR1 strain", "setting": "5 µM, 4 h, added: OHHL 5 µM", "endpoint": "inhibition", "value": "58%"}
{"SMILES": "NCCc1c[nH]c2ccc(O)cc12", "target": "NMT from Rhinella marina", "setting": "10 min, 30 °C", "endpoint": "kcat", "value": "0.0012 s⁻¹"}
{"SMILES": "O=C(Cc1cccc2ccccc12)N[C@H]1CCOC1=O", "target": "ExpR1 (Pectobacterium carotovorum)", "test": "cellulase activity, agonist", "system": "Pectobacterium carotovorum, single-ExpR1 strain", "setting": "200 µM, 4 h", "how to read": "relative to: OHHL", "endpoint": "activation", "value": "7%"}
{"SMILES": "Nc1nc2c(ncn2[C@@H]2O[C@@H]3COP(=O)(O)O[C@H]4[C@@H](O)[C@H](n5cnc6c(N)ncnc65)O[C@@H]4COP(=O)(O)O[C@@H]2[C@@H]3O)c(=O)[nH]1", "target": "STING (RUSH)", "test": "confocal microscopy", "setting": "concentration not given, added: biotin", "endpoint": "STING Golgi localization", "value": "~85%"}
{"SMILES": "O=C(Cc1cc(C(F)(F)F)cc(C(F)(F)F)c1)NC1CCOC1=O (stereo not drawn)", "target": "ExpR1 (Pectobacterium carotovorum)", "test": "cellulase activity, antagonist", "system": "Pectobacterium carotovorum, single-ExpR1 strain", "setting": "5 µM, 4 h, added: OHHL 5 µM", "endpoint": "inhibition", "value": "4%"}
{"SMILES": "C[C@H](C(=O)N[C@H]1COc2ccccc2[C@@H]1S(C)(=O)=O)c1ccc(F)cc1", "target": "GABA transporter (rat)", "test": "Eurofins selectivity panel", "setting": "10 µM", "endpoint": "inhibition", "value": "-4%"}
{"note": "A few entries again:"}
{"SMILES": "Cc1cc(Nc2cc(N3CCN(C)CC3)nc(Sc3ccc(NC(=O)C4CC4)cc3)n2)n[nH]1", "target": "NLRP3 inflammasome", "setting": "10 µM", "endpoint": "inhibition", "value": "26.9%"}
{"SMILES": "COc1cc(Nc2ncc(F)c(Nc3ccc4c(n3)NC(=O)C(C)(C)O4)n2)cc(OC)c1OC", "target": "KATP potassium channel", "endpoint": "IC50", "value": "> 10000 nM"}
{"SMILES": "c1ccc(C(NCCNC(c2ccccc2)c2ccccc2)c2ccccc2)cc1", "target": "phorbol ester site, mouse", "test": "binding", "setting": "10 µM, Eurofins selectivity panel", "endpoint": "inhibition", "value": "-13%"}
